# Measured values gathered from unrelated publications.
# Each line is one published result; not all experiments were run side by side.
SMILES,test,system,setting,quantity,result
Cc1nc(-c2cnc(NC(C)C)n(C)c2=O)ccc1Oc1ccnc(-c2cnn(C)c2)c1,,TGCT patients,"oral, dose not given",patients with TEAE,100%
COc1cc2c(Oc3ccc4[nH]c(C)cc4c3F)ccnc2cc1OCC1(N)CC1,,paediatric refractory sarcoma patients,8 mg/kg,patients with grade 3 TBIL elevation,0%
COc1nnc2ccc(N3CCC(c4ccc(OCCN5CCN(C)C(=O)[C@H]5C)cc4)CC3)nn12,refers to: thrombocytopenia,patients with solid tumours or lymphoma,"oral, dose not given, grade at least 3, treatment-emergent",patients with adverse event,14.7%
CO[C@H]1C[C@@H]2CC[C@@H](C)[C@@](O)(O2)C(=O)C(=O)N2CCCC[C@H]2C(=O)O[C@H]([C@H](C)C[C@@H]2CC[C@@H](OC(=O)NCCOCCOCCOCCOCCOCCOCCOCCOCCC(=O)N3CCc4cc(Cn5nc(-c6ccc7oc(N)nc7c6)c6c(N)ncnc65)ccc4C3)[C@H](OC)C2)C[C@@H](O)[C@H](C)/C=C(\C)[C@@H](O)[C@@H](OC)C(=O)[C@H](C)C[C@H](C)/C=C/C=C/C=C/1C,refers to: TEAE leading to discontinuation,patients with advanced solid tumours,"intravenous, dose not given, all patients, weekly",patients with AE,12%
O=C1Nc2cc3[nH]nc(-c4ccncc4)c3cc2CN1Cc1ccccc1,CTCAE v4.03,advanced solid tumour patients,"intravenous, 0.9 mg/kg, schedules 1/2",patients with diarrhoea,0%
N[C@@H]1c2ccccc2OC12CCN(c1cnc3c(N4CCCc5ncccc54)n[nH]c3n1)CC2,,advanced solid tumour patients,"oral, 150 mg once daily",patients with any TEAE,100%
CN1CC[C@@H](c2c(O)cc(O)c3c(=O)cc(-c4ccc(C(F)(F)F)cc4Cl)oc23)[C@@H]1CO,refers to: Leukopenia,relapsed B-cell malignancies,"oral, 200 mg, grade 3-4, intermittent dosing",patients with adverse event,0%
CC(=O)c1c(C)c2cnc(Nc3ccc(C4CCN(CCS(C)(=O)=O)CC4)cn3)nc2n(C2CCCC2)c1=O,,HR+/HER2- advanced breast cancer patients,"oral, dose not given, all grades,, total",patients with GGT increased,21%
CC(C)C[C@H](NC(=O)[C@@H](Cc1c[nH]c2ccccc12)NC(=O)[C@H](Cc1ccc(O)cc1)NC(=O)[C@H](CO)NC(=O)[C@H](Cc1c[nH]c2ccccc12)NC(=O)[C@H](Cc1c[nH]cn1)NC(=O)[C@@H]1CCC(=O)N1)C(=O)N[C@@H](CCCNC(=N)N)C(=O)N1CCC[C@H]1C(=O)NCC(N)=O,,"Chinese CPP children, boys","intramuscular, 22.5 mg, 12 months, day 1, month 6",patients who died,0%
CCNCCCNC/C=C\CNCCCNCC,,advanced refractory solid tumour patients,"intravenous, dose not given, General disorders",patients with drug-related TEAEs,56.5%
C[C@@H]1OC(=O)NN=C1c1ccc(-c2ccc(F)cc2)c(C(F)(F)F)c1,,"patients, phase I trial","oral, 5 mg once daily, worst grade 1",patients with platelet count decreased,0%
Nc1nc2cc(-c3ccc4ncc(C(=O)N5CCOCC5)n4c3)ccc2o1,"refers to: Anemia, any cause, all grades",patients with advanced solid tumours,dose not given,patients with adverse events,33%
C=CCNc1c(O)cc2c(O)c1C[C@@H](C)C[C@H](OC)[C@H](O)[C@@H](C)/C=C(\C)[C@H](OC(N)=O)[C@@H](OC)/C=C\C=C(/C)C(=O)N2,,"unresectable or metastatic STS, GIST, other","intravenous, 500 mg/m^2",patients with diarrhoea TEAE,57%

# For quick reference, copied from above:
SMILES,test,system,setting,quantity,result
CO[C@H]1C[C@@H]2CC[C@@H](C)[C@@](O)(O2)C(=O)C(=O)N2CCCC[C@H]2C(=O)O[C@H]([C@H](C)C[C@@H]2CC[C@@H](OC(=O)NCCOCCOCCOCCOCCOCCOCCOCCOCCC(=O)N3CCc4cc(Cn5nc(-c6ccc7oc(N)nc7c6)c6c(N)ncnc65)ccc4C3)[C@H](OC)C2)C[C@@H](O)[C@H](C)/C=C(\C)[C@@H](O)[C@@H](OC)C(=O)[C@H](C)C[C@H](C)/C=C/C=C/C=C/1C,refers to: TEAE leading to discontinuation,patients with advanced solid tumours,"intravenous, dose not given, all patients, weekly",patients with AE,12%
